Measurements collected from several papers.
Each line is one published result; not all experiments were run side by side. “And” joins repeats or separate records; there may be more than shown. ± marks the error that the study gave.

The IC50 of O=C(Nc1ccc(OC2CCN(Cc3ccccc3)C2)c(Cl)c1)c1cccs1 (stereo not shown) is reported as 2620 ± 996 nM (Plasmodium yoelii; 17XL; 384-well).
Nc1cc(Cl)ccc1C(=O)NCCCCNc1ccnc2cc(Cl)ccc12 has an inhibition of 21.2% (Chromobacterium violaceum; violacein production; ATCC 31532; 10 µM, quorum sensing reporter).
Cc1cc(OC(C)C)ccc1C(=O)C(C)(C)NC(=O)c1sccc1C has an inhibition of 94 ± 6% (Botrytis cinerea; conidial germination; B05.10; 3 µg/mL).
The inhibition of CCc1nn(C)c2nc(-c3ccc(C(=O)O)cc3)nc(NCc3ccc(F)cc3)c12 is reported as 76.2% and 72.4% (Cryptosporidium parvum; parasite growth, immunofluorescence imaging; HCT-8, Iowa; 2 µM).
The viability of O=C(O)c1ccnc(C(=O)O)c1 is reported as 103% (HBL-1; 1 µM, 120 h).
The inhibition of Oc1c(Br)cc(Br)c2cccnc12 is reported as 51% (Trichomonas gallinae; CCK-8; 20 µM, 24 h).
COC[C@H]1O[C@@H]2O[C@@H]3[C@@H](OC)[C@@H](OC)[C@@H](O[C@@H]4[C@@H](OC)[C@@H](OC)[C@@H](O[C@@H]5[C@@H](OC)[C@@H](OC)[C@@H](O[C@@H]6[C@@H](OC)[C@@H](OC)[C@@H](O[C@@H]7[C@@H](OC)[C@@H](OC)[C@@H](O[C@@H]1[C@@H](OC)[C@H]2OC)O[C@@H]7COC)O[C@@H]6COC)O[C@@H]5COC)O[C@@H]4COC)O[C@@H]3COC gave an inhibition of -3 ± 2% (Escherichia coli; LuxR reporter, antagonist; DH5α sensor strain; 1 µM, with: OHHL 200 nM).
The inhibition of Cc1nc(C)c(Cl)c(O)c1Cl is reported as 50.2% (Trichomonas gallinae; CCK-8; 20 µM, 24 h).
With Nc1ccccc1C(=O)NCCCCNc1ccnc2ccccc12 the inhibition was 34.9% (Chromobacterium violaceum; violacein production; ATCC 31532; 400 µM, quorum sensing reporter).
For CN(C)[C@@H]1C(O)=C(C(N)=O)C(=O)[C@@]2(O)C(O)=C3C(=O)c4c(O)ccc(Cl)c4[C@@](C)(O)[C@H]3C[C@@H]12, the inhibition was 50.6% (Trichomonas gallinae; CCK-8; 20 µM, 24 h).
With Nc1nccc2c1ncn2[C@@H]1C=C(CO)[C@@H](O)[C@H]1O the viability was 50.1% (HBL-1; 1 µM, 120 h).
With Nc1ccc(Br)cc1C(=O)NCCCCNc1ccnc2cc(Cl)ccc12 the inhibition was 44% (Chromobacterium violaceum; violacein production; ATCC 31532; 40 µM, 2% DMSO).
O=C(Nc1cccc(C2=NCCN2)c1)Nc1cccc(C2=NCCN2)c1 has an inhibition of 18.8% (Theileria equi; parasite growth, flow cytometry; horse erythrocytes, USDA Florida strain; 0.01075 µM, 72 h).

Some of these lines once more:
With Nc1ccccc1C(=O)NCCCCNc1ccnc2ccccc12 the inhibition was 34.9% (Chromobacterium violaceum; violacein production; ATCC 31532; 400 µM, quorum sensing reporter).
For CN(C)[C@@H]1C(O)=C(C(N)=O)C(=O)[C@@]2(O)C(O)=C3C(=O)c4c(O)ccc(Cl)c4[C@@](C)(O)[C@H]3C[C@@H]12, the inhibition was 50.6% (Trichomonas gallinae; CCK-8; 20 µM, 24 h).
